Literature values as cited in several papers.
Lines come from different studies, so protocols differ. “And” joins repeats or separate records; there may be more than shown.

CN1CC[C@]23c4c5ccc(O)c4O[C@H]2[C@@H](O)CC[C@H]3[C@H]1C5 — logP: 1.13
O=C(O)CCCO — LD50 (rat): 1750 mg/kg
CC(C(=O)O)c1ccc(-c2ccccc2)c(F)c1 (stereo not shown) — half-life (human): 3 to 4 h
Cc1ncc2n1-c1ccc(Cl)cc1C(c1ccccc1F)=NC2 — fraction absorbed (human; clinical): 0.9
CN1C(=O)CN=C(c2ccccc2)c2cc(Cl)ccc21 — blood-to-plasma ratio (human; average of reported values): 0.62
Cc1ccc(-c2nc3ccc(C)cn3c2CC(=O)N(C)C)cc1 — fraction unbound (mouse): 0.13
C=C1C[C@@H]2[C@H](CC[C@]3(C)C(=O)CC[C@@H]23)[C@@]2(C)C=CC(=O)C=C12 — unchanged fraction (patients, plasma; dose not given): < 10%
Cc1ncc(OC[C@@]2(c3cccc(F)c3)C[C@H]2C(=O)Nc2ccc(F)cn2)c(C)n1 — fraction absorbed (human): 87%
CCCC(C)(COC(N)=O)COC(=O)NC(C)C (stereo not shown) — fraction unbound (mouse): 0.31
NC(=O)C[S+]([O-])C(c1ccccc1)c1ccccc1 (stereo not shown) — volume of distribution at steady state (human; dose not given): 0.72 L/kg
Cc1ncc2n1-c1ccc(Cl)cc1C(c1ccccc1F)=NC2 — plasma clearance (human; average of reported values): 5.15 mL/min/kg
COc1cccc(C2(O)CCCCC2CN(C)C)c1 (stereo not shown) — Cmax (human, plasma; concentration not given, range of reported values): 273 to 2350 nM
N[C@@]1(c2ccccc2Cl)CCCCC1=O — AUC(0-3h) (mouse; dose not given, together with: 1-ABT and ticlopidine; relative to: without CYP inhibitors): increased
Cc1ncc2n1-c1ccc(Cl)cc1C(c1ccccc1F)=NC2 — volume of distribution (human; dose not given): 1 to 2 L/kg
O=C(O)[C@H](c1ccccc1)[C@H]1CCCCN1 — half-life (human, CES1 wild type, plasma; oral, 10 mg methylphenidate, single dose, median): 8.6 h
C#CCN(C)[C@H](C)Cc1ccccc1 — fraction unbound (mouse): 0.045
CCCC(C(=O)c1ccc2c(c1)OCO2)N1CCCC1.Cl (racemic) — striatal concentration (male Sprague-Dawley rat, striatum; subcutaneous, 1 mg/kg): ~1000 ng/g
c1ccc2c(c1)Cc1ccccc1-2 — amount in tissue (zebrafish embryos, whole embryo; 89.59 ng/well, 48 hpf, single exposure): 1.15 ng/well and 1.19 ng/well and 1.1 ng/well
CN1C(=O)CN=C(c2ccccc2)c2cc(Cl)ccc21 — blood-to-plasma ratio (human): 0.71
O=c1[nH]c2ccccc2n1CCCN1CCC(n2c(=O)[nH]c3cc(Cl)ccc32)CC1 — solubility (water): < 1000 µg/mL
COC(=O)[C@H](c1ccccc1)[C@H]1CCCCN1 — half-life (human, CES1 wild type, plasma; oral, 10 mg methylphenidate, single dose, median): 2.6 h
CN1C(=O)CN=C(c2ccccc2)c2cc(Cl)ccc21 — Cmax (plasma; concentration not given, total, steady state): 1110 nM
O=c1[nH]c2ccccc2n1CCCN1CCC(n2c(=O)[nH]c3cc(Cl)ccc32)CC1 — Cmax (human, plasma; concentration not given, range of reported values): 33 to 117000 nM
Cc1nnc2n1-c1ccc(Cl)cc1C(c1ccccc1)=NC2 — free Cmax (human): 19.7 nM
Cc1ncc2n1-c1ccc(Cl)cc1C(c1ccccc1F)=NC2 — oral bioavailability (human): 30 to 40%
